# Assay results collected from several papers.
# Every numbered part comes from another study and shows a few of its results, in no order.

# Series 1
# Target: RNA binding protein fox-1 homolog 2, RRM domain, GST-SBP tag (RBFOX2, Homo sapiens, UniProt O43251-10, residues 100-194)
# Method: RNA Bind-n-Seq
# Molecule type: RNA
# Matrix: in vitro
# Tested at: 365 nM
# Notes: natural RNA segment, single round, ends assumed
# Reference: no-protein control
# Reading: higher = stronger binding
# Constant ends, left off below: GGGAGUUCUACAGUCCGACGAUC … UGGAAUUCUCGGGUGCCAA
# Residues (chain): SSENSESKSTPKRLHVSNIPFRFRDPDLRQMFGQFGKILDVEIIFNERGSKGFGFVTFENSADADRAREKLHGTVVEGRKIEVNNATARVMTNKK
Sequence,RBNS enrichment (R)
CGCUCACGCUCUCGUCCUUAGGGAGGAGCUGACUUAGCAGCCCCUCAGCCCAACCCCCUGCUUCCUGUUGGCUUUUGGGUAGCACUUGCCAUUAACAACAGCAGCCUAGA,9.64
CUAUUUUCUUUUAAUCUGGAUCUUUUGAGGUAAGAAGAUCCACCUUUAGUCAGGGCCACACCUUCUGAUGGCAUUCAAAUAUAAGGCUGUGGAAGAAGGAAGCUUUUGCG,0.395
UUCUUCUGCCUCGCCUGAAUCCCCCAUAAACACCAGAUGAUUGAGUCUACCUUCUUUCCUUGGCCCGCUCCCUUUUUCUUCUGCCUCACUUGAAUCCCCCGUAAACACCA,1.02
GUAGCGCCGACCGAAGGUGAUUCCAGUUGUAUAUGUCACGCAGCAUUCGAAGGGACUGUGCACGCUCUAAAGAUCACAGUUGCUUCUAAGCCAGAUUUCAUUUCUAUUCU,0.314
GUCCCGUAUUUCUCCAUCUCCAGUUCUGGACAGUGCAGGUUGCCAAGAAAAGGGACCUAGCUUAGCCAUGGCCCUGGAGAUGAAGUUACUGAGGCUGAGGGUAGAUGGGU,0.825
UUGAUAGCAUAGACUGGUCACCCUGGACGUGCUUCAAGGUACUGUUCCCACUGAGCCUGUGCUUGCAUGACUACAUUGAGGAGAGAGAUGGUACCGGGGGUGGGGCUGUC,7.98
GAAUUGUAACAUAGCAUGACAAAUUUUGUGUUGACUUGAAAGGAAUCACACCAUUAUUCCUUAGAAGUAAUUACAUGUGUUCUAACACAUUUGAGACAGGGUUGGACUCC,11.5
AGGGAUGCAUAAAAUAAUGUUAAUGUUUUCAGUAAUGUCUUCAAGUAGAAGACUUUCUGUUGAACUACUUAUAAGAAAGUAAAAUAAAUAUUGUCUUUUUGUAUGUCACC,0.446
AGAGUCUCUCCUGCCCUCCCUCCUUCCUGCAGGCAAAUAUACAAGCUAGACCCUGUUCCCUCACCCUGUAUCCUGUCUCCCCUAAUUGACAUUCUAUCAGCCCAACCCUC,0.516
AUCAGGAAUUUUGUCCGUGUAUAAGGGGUUCUAAGUUUCAAAGCUUGUUCAGUGUGAUGGAAUAACAAGAUGAAUUAUUGGUGAUUUUUCAUAAUCGAUGUGGUCUACUA,0.546
AGAGAAAAGAGAAAGUGUUUUAUAUACGGUACUUAUUUAAUAUCCCUUUUUAAUUAGAAAUUAAAACAGUUAAUUUAAUUAAAGAGUAGGGUUUUUUUUCAGUAUUCUUG,0.786
GAAGCAGUAACAUUUUUCUCAGUGCACAUGCAAUUUGGGUUUUAGAGAAGAUGGCCACCAGCUGGCUUCCUAGAUAUUUUAAACUUUUGUUCUUUAAUAUGCUGUCCAUG,0.355

# Series 2
# Target: RING finger protein unkempt homolog, zinc fingers 1-6, GST-SBP tag (UNK, Homo sapiens, UniProt Q9C0B0, residues 30-357)
# UniProt Q9C0B0, sequence (30-357, looked up): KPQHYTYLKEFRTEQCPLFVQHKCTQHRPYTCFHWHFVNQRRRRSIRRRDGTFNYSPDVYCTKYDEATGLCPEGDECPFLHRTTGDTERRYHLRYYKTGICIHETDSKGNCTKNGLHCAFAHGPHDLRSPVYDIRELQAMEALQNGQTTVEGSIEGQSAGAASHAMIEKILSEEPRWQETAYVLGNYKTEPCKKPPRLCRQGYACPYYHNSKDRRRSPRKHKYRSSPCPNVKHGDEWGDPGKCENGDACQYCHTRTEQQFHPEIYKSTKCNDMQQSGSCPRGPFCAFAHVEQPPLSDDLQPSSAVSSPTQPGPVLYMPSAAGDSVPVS
# Method: RNA Bind-n-Seq
# Molecule type: RNA
# Matrix: in vitro
# Tested at: not given
# Notes: RNA with constant flanks, human-mouse chimeric sites, ends assumed
# Reference: input RNA pool
# Reading: higher = stronger binding
# Constant ends, left off below: GGGAGUUCUACAGUCCGACGAUC … CAACAGAGGAUUGAGCAUCA
Sequence,bound/input enrichment [ratio]
UUGAAAACUGAUUCAAGUAAGUUUGAGUAUCACAAUGUUAGCUUUCUAAUUCCAUAAAGAUAGUUUUUUUUUACAGUUUAUAAUCUGACAUCACCCCAGCGCCAUUUAGAUCAGCUUACU,16.4
UUCAAAGAAAAGGGCAGCUGUGUCAUUUCAUAAGUAACUCUGGGGGAGGGAAAUUCUGUUCUUUUGUUUAAUUUUCCCCCAAAUGAAACCAACAUGCUUUUUAAGGAACUGAGAAAAAAU,0.208
GUAUACGGUUAUCGAGGAAAGGACUGUAGAGCGAAUGUAUACCUGCUUCCCACAGGGAAAAUAGUUUAUUUCAUUGCCUCAGUGGUAGUCCUGUUUAAUUAUGAGGAGAGGACUCAGCGA,17.4
GAUCAUGGAACCAGAAUAGAAAUGAAGAUGAGAUUACCCAGACGAGCCAAAACAGCUGCGCUACAGAAAAGUAAACUUAACCUUGCAGAGUUCCUUAAAUGAAGAUCAAGUUAAGAGAGC,0.908
GACUUGGGACCGUCCUGGGCUAGUACAAAUAGCGGCAGUGGAGGCUCGAGAGGAAAGUUUGUUAGUGGAGGCAGUGGUAGAGGCCGUCAUGUACGGUCCUUUACUCGAUAGAUGUGUUCU,0.62
GUGACUGGUGUUAAGAUUUCCCCUCAGCAAAGAAGUGCAGUAGUCACCAUAAUUCCAUCUGUGGUGAGUGCCAGUCAGAUAAAAGAGCUGGUCCCAGAACUCAGUUUAGACAUGGGAACU,0.348
AAAGAACCUCUCUCUGAUGAAGAUGAGGAAGACAAUGAUGAUGUUGAACCCAUUUCUGAAUUUCGAUUUGUGCCUAGUGAUAAGUCAGCAUUGGAGGCGAUGUUCACUGCAAUGUGCGAG,0.262
AGAGAUAAGACAUCCAGGAACAUGCGAGGCUCCCGGAUGAAUGGGUUGCCUAGCCCCACUCACAGCGCCCACUGUAGCUUCUACCGAACCAGAACCUUGCAGGCAUUGAGUAAUGAGAAG,0.144
GCUCUUGGGAAUGUAAUAAGUGCCUUGGGGGACAAGAGCAAGAGAGCCACCCAUGUCCCUUACAGAGACUCUAAGCUGACAAGACUCCUACAGGAUUCCCUUGGGGGUAACAGCCAAACC,0.129
CUUAAUGUUAAUAUUUUUGAAUAAAUGAAGCUAAAAUGUCUGCUUUUGGUACUACAUGCAUUAAUAAAAGGUUAAGUUUUGUUUUCCACUGAAGUACUAUUUAACAUACAUCUCAGAAAC,0.254
GCUCCUCCCCGCUCUGCAGCCUGGGGACACUGGGCUGGGACCAGAAUCCAGCUUUCUUUUAAAACUCUCAGUGUAACUGUAUCCCGUGACAUUUCAUUUUUUUUUUAAGAAAAAAACUUU,0.128

# Series 3
# Target: Histone acetyltransferase KAT6A, both winged helices, GST fusion (KAT6A, Homo sapiens, UniProt Q92794, residues 1-181)
# Method: protein binding microarray
# Molecule type: double-stranded DNA, one strand shown
# Matrix: in vitro
# Tested at: not given
# Notes: 8-mer, flanks averaged, mean of 2 arrays, mostly near background
# Reference: not given
# Reading: higher = stronger binding
# Target sequence (chain): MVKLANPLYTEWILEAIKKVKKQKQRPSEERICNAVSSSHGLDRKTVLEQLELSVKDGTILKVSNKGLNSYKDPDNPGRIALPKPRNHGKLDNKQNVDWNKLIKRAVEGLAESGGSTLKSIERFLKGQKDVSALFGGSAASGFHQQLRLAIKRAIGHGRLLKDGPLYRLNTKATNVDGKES
Sequence,E-score
CGGCCTAG,0.0645
ACTGTTAA,-0.0311
CGGACGCC,0.284
AACGAGAT,-0.114
AATAGGGC,-0.108
CTCTATAC,0.0253
ATGGCGCC,0.219
GGCTACGA,0.0857
AAGAACCA,-0.0683
CCGTTGCA,0.177
ATCCTAGC,-0.181
ATCTACGC,0.199
CAGACGAA,-0.087
CCAAAAAC,-0.143
CAGGTTAC,-0.0418
GGAGCAAC,-0.0063
AAAGTTGT,0.00052
AATGAAAG,-0.0802
GCCGTTTA,0.239
CAGAGCAC,-0.0763
AACTACTA,-0.0757
ATATTTAA,-0.0525
AGCATGGG,-0.126
GACAGTCC,0.0122

# Series 4
# Target: Fragile X messenger ribonucleoprotein 1, C-terminal low-complexity region (Fmr1, Mus musculus, UniProt P35922)
# Method: RNA Bind-n-Seq
# Molecule type: RNA
# Matrix: in vitro
# Tested at: 200 nM
# Notes: whole 134-nt RNA, ends assumed
# With: 150 mM LiCl
# Reference: input library
# Reading: higher = stronger binding
# All molecules: 7-deaza-guanosine replaces G
# Constant ends, left off below: GGGAGUUCUACAGUCCGACGAUC … UGGAAUUCUCGGGUGUCAAGG
Sequence,log2 enrichment
ACCAUGCAGGUGGGCAUCUUUGGGAAGUGGGGCAAGGGGGGGAUAGGGAGGGGGGUAACACUUUGGGAACAGGUGGUCUCAGGUCGUUUC,1.4
UCCUGUGCUACACAUCGUAUGUACCGAAUCGGGAAAAAAAGGGAAAAAAAGGGUUUGGGAAAGUAUUAUGUUACGCCGUUCGGAUCUGCA,-1.9
CAAGUCCUGUGCUACACAUCGUAUGUACCGAAUCGGUUUGGAAAAAGGAAAAAGGAAAGUAUUAUGUUACGCCGUUCGGAUCUGCACUUC,-1.27
AAGUCCUGUGCUACACAUCGUAUGUACCGAAUCGGGUGGGAAAGGGUUUUUUUGGGAAAGUAUUAUGUUACGCCGUUCGGAUCUGCACUU,-1.72
UAACUUUAGAGCAGGAUCUGAUGGAUAUGGCAGUGGACGUGGAUUUGGGGAUGGCUAUAAUGGGUAUGGAGGAGGACCUGGAGGUGGCAA,-0.492
GCAGGAAGUAAAAACAAAUGGAAAUGCUUCGGAUAGUGGCAGGGGUGGGGGUUGCUAAGGAAAGGCUGGGAUGGGAGUGGGUAAAGAGUU,1.41
CUCAAGUCCUGUGCUACACAUCGUAUGUACCGAAUCGGGUUGGGUUGGGGUUGGAAAGUAUUAUGUUACGCCGUUCGGAUCUGCACUUCC,-0.366
UAACUUUAGAGGAGGAUCUGAUGGAUAUGGCAGUGGACGUGGAUUUGGGGAUGGCUAUAUUGGGUAUGGAGGAGGACCUGGAGGUGGCAA,0.0692
CCUCAAGUCCUGUGCUACACAUCGUAUGUACCGAAUCGGAGGGAGGGAGGGGAAAGUAUUAUGUUACGCCGUUCGGAUCUGCACUUCCAG,-1.21
CUGUGCUACACAUCGUAUGUACCGAAUCGGGGCCCCCCCGGGCCCCCCCGGGCCCCCCCGGGAAAGUAUUAUGUUACGCCGUUCGGAUCU,-0.543
GCAGGAAGUAAAAACAAAUGGAAAUGCUUCGGAUAGUGGCAGGGGUGGGGGUUGCUAAGGAAAGGGUGGGAUGGGAGUGGGAAAAGAGUU,1.54

# For quick reference, copied from above (series 3):
Sequence,E-score
GGAGCAAC,-0.0063
AACTACTA,-0.0757
CGGCCTAG,0.0645
CGGACGCC,0.284
CAGACGAA,-0.087
GGCTACGA,0.0857
